Measured values gathered from unrelated publications.
Parts stem from different laboratories: compare values within a part only.

Study 1
Target: RNA binding protein fox-1 homolog 2, RRM domain, GST-SBP tag (RBFOX2, Homo sapiens, UniProt O43251-10, residues 100-194)
Method: RNA Bind-n-Seq
Form: RNA
Matrix: in vitro
Concentration: 365 nM
Notes: natural RNA segment, single round, ends assumed
Baseline: no-protein control
Reading: higher = stronger binding
Constant ends, left off below: GGGAGUUCUACAGUCCGACGAUC … UGGAAUUCUCGGGUGCCAA
Construct (chain): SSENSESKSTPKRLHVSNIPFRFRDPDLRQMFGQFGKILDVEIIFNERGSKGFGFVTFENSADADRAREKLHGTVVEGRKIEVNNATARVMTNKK
`GGUAUCGGGAAUCCUUGAACAAUUUGGGUUUUCUUCCCCUUUUUUCUCUUUCGUGCUGCAUGCACAUUUAUCCAACACUCACGGGUUGUUUGGGAAAAAGUACCAGCAAU` — result for “RBNS enrichment (R)”: 0.788.
`UGUCAUGAGAAAAGAGGUACAUGGUGAUCCCCAAGAGAACUCAAGCCUUAUUCCUCACACACUACAGUUUGUAUUGAUCUUAAUUUUUAUCCUGUUAUACUGAGAUCCUA`: “RBNS enrichment (R)” 0.307.
Under “RBNS enrichment (R)”, `AGCCUUGCUGAACUAAGUUUUGUGUGUAUAUAUUUAAAGAUCAGUGUUUAAAUAAAAAAAAAAAAAAAACCAACUAUGUACUUACUCUGACUUCUGCGGACAGCAAUUUG` is recorded as 5.15.
Under “RBNS enrichment (R)”, `GCAUAAGUCAUAGCUCUAUUCUUAGUGUCAUAAAGUGUAGCUAAUUUAUAAGCUCUAAGUAAUCAGCUUUAUCUAAUUUGAGGGCAUUAAAAUUACUGCCUAGAACUUUG` is recorded as 0.441.
`GCACUGCAUUAAACCUGGCUGGUCUCUUGUCUUGACUUCCUAUAUCUUUGGCUCCUUCUGUCUCAGAAUGAUGGGAAGCCUGACGGGGACCUGAGGAUUGAGGUCCUUGC`: “RBNS enrichment (R)” 0.534.
`AACCCAAGUCCUUAGAGAAUUUGGGGACCAAUAGAAUAUGUGAUGUGUGAAUUUUCUUUAAAAAACUUAAGGAGUCUUUGCUACCUUCUGCUUGUUGAGUUGUUUUGGCA` — result for “RBNS enrichment (R)”: 1.64.
For `GCGAUAGUCCUGGGUGCUCCACUGAUUGGAGGAUAGAGCCAGCUGUCUGACACACAAAUGGUCUUUUCAGCCACAGUCUUAUCAAGUAUCCUAUAUGUAUUCCUUUCUAA`, “RBNS enrichment (R)” read 0.284.
`CCCCCUCUCAGCAGCCCACCGGGUCCCUCCAGGCUGCUGCCCGUGCGUGGUCUUUCUCCUCCUUUUCAAAGCAAUAGCCGCCGGGUCUGCAAAGCCCUGUCAGACAGACU`: “RBNS enrichment (R)” 0.279.

Study 2
Target: Histone acetyltransferase KAT6A, winged helix 1, GST fusion (KAT6A, Homo sapiens, UniProt Q92794, residues 1-85)
Method: protein binding microarray
Form: double-stranded DNA, one strand shown
Matrix: in vitro
Concentration: not given
Notes: 8-mer, flanks averaged, mean of 2 arrays, mostly near background
Baseline: not given
Reading: higher = stronger binding
Residues (chain): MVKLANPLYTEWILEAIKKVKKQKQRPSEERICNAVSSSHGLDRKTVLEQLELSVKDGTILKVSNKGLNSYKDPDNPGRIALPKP
With `TCTGAACA` the E-score was -0.0472.
`AGAAATGA` has an E-score of -0.222.
`CTCACGCA` has an E-score of 0.0488.
`ATTGACCA` gave an E-score of -0.283.
`CGCCCTCC` has an E-score of 0.25.
`GGAGCCTA` has an E-score of -0.111.

Study 3
Target: Fragile X messenger ribonucleoprotein 1, C-terminal low-complexity region (Fmr1, Mus musculus, UniProt P35922)
Method: RNA Bind-n-Seq
Form: RNA
Matrix: in vitro
Concentration: 200 nM
Notes: whole 134-nt RNA, ends assumed
Together with: 150 mM KCl
Baseline: input library
Reading: higher = stronger binding
`GGGAGUUCUACAGUCCGACGAUCCCUCAAGUCCUGUGCUACACAUCGUAUGUACCGAAUCGGAGGAAAAAGGAGGAAAGUAUUAUGUUACGCCGUUCGGAUCUGCACUUCCAGUGGAAUUCUCGGGUGUCAAGG` gave a log2 enrichment of 0.281.
For `GGGAGUUCUACAGUCCGACGAUCUAGGAGGUGGAUUUUGUUUAUUUUUUUAGCUCAUUUCCAGGGGUGGGAAUUUUUUUUUAAUAUGUGUCAUGAAUAAAGUUGUUUUUGAAAUGGAAUUCUCGGGUGUCAAGG`, the log2 enrichment was -0.154.
For `GGGAGUUCUACAGUCCGACGAUCUGGGAGGUGGAUGUUGUUUAUUUUUUUAGCUCAUUUCCAGGGGUGGGAAUUUUUUUUUAAUAUGUGUCAUGAAUAAAGUUGUUUUUGAAAUGGAAUUCUCGGGUGUCAAGG`, the log2 enrichment was 0.204.
`GGGAGUUCUACAGUCCGACGAUCUUGGCUCGAGAGAUUGAAUCAAGCCCCCAGUACCGCCUACGGAUCGCCAUGGAGAACGACGAUGGGCGCACUGAAGAGGAGAAGCACAGUUGGAAUUCUCGGGUGUCAAGG` gave a log2 enrichment of -0.451.

Other studies, line by line
`PhoQ, residues 284 288 289 292 302 303 TLMATV` has a fold induction of 5.02 (PhoP, residues 12 14 15 18 19 HEGLL (Escherichia coli, UniProt P23836); Sort-seq, measured: YFP reporter; E. coli; PhoQ-PhoP variant library, together with: 10 µM Mg2+; baseline: high Mg2+ state, higher = stronger signaling).
